Results collected from several papers.
Organism: Staphylococcus aureus

Compound = CCCC(=O)OCCSC[C@H](N)C(=O)N[C@H](CCN)C(=O)N[C@@H](CCN)C(=O)N[C@@H](CCN)C(=O)N[C@@H](CC(C)C)C(=O)N[C@H](Cc1ccccc1)C(=O)N[C@@H](CCN)C(=O)N[C@@H](CCN)C(=O)N[C@@H](CC(C)C)C(N)=O; test system = ATCC 6538; conditions = 24 h, 37 °C; MBC = > 128 µM
Compound = COc1ccc(CC2[NH2+]CCc3cc(OC)c(OC)cc32)cc1OC.[Cl][Fe-]([Cl])([Cl])[Cl] (stereo not drawn); conditions = 24 h, 37 °C; MBC = > 1600 µM
Compound = CC[C@H](C)[C@@H]1NC(=O)[C@H](CO)NC(=O)[C@H](CCCCN)NC(=O)[C@@H]2CSSC[C@@H](C(=O)N[C@@H](Cc3ccc(O)cc3)C(N)=O)NC(=O)[C@H](CCCCN)NC(=O)[C@@H]3CSSC[C@H](NC(=O)[C@H](CCCNC(=N)N)NC(=O)[C@H](CC(C)C)NC(=O)[C@H](CC(=O)O)NC(=O)[C@H](CC(=O)O)NC(=O)[C@H](CCC(=O)O)NC(=O)[C@H](CC(N)=O)NC(=O)[C@H](Cc4c[nH]c5ccccc45)NC(=O)C(C)(CC)NC(=O)CNC(=O)[C@H](CC(N)=O)NC(=O)[C@@H](NC(=O)CNC(=O)[C@H](Cc4ccccc4)NC(=O)CN)CSSC[C@H](NC(=O)[C@H](Cc4ccc(O)cc4)NC(=O)CNC(=O)CNC(=O)[C@H](CCCCN)NC(=O)[C@H](Cc4ccc(O)cc4)NC(=O)[C@H]4CCCN4C(=O)[C@@H]4CCCN4C1=O)C(=O)N[C@@H](C)C(=O)N[C@@H](CCCCN)C(=O)N1CCC[C@@H]1C(=O)NCC(=O)N[C@@H](Cc1ccccc1)C(=O)N[C@@H](C(C)C)C(=O)N3)C(=O)N[C@@H](Cc1c[nH]cn1)C(=O)N[C@@H](CC(N)=O)C(=O)N[C@@H](Cc1c[nH]cn1)C(=O)N2 (stereo partly drawn); test system = 469; conditions = 24 h, 37 °C, 99.9% killing; MBC = 1 µM
Compound = Oc1c(Br)cc(Br)c2nc3cc(C(F)(F)F)ccc3nc12; test = plating of MIC wells; test system = MRSA BAA-1707; MBC = 0.3 µM
Compound = CCC(C)CCC(=O)N[C@H](CCN)C(=O)N[C@@H](CCN)C(=O)N[C@@H](CCN)C(=O)N[C@@H](CC(C)C)C(=O)N[C@H](Cc1ccccc1)C(=O)N[C@@H](CCN)C(=O)N[C@@H](CCN)C(=O)N[C@@H](CC(C)C)C(N)=O (stereo partly drawn); test system = ATCC 6538; conditions = 24 h, 37 °C; MBC = 128 µM
Compound = CC[C@H](C)[C@H](NC(=O)[C@H](CCCCN)NC(=O)[C@H](CCCCN)NC(=O)[C@H](Cc1ccccc1)NC(=O)[C@H](Cc1ccccc1)NC(=O)[C@H](CCCCN)NC(=O)[C@H](CCCCN)NC(=O)[C@H](Cc1ccccc1)NC(=O)[C@H](CCCNC(=N)N)NC(=O)[C@@H](N)CCCCN)C(=O)N[C@@H](CCCCN)C(=O)N[C@@H](CCCCN)C(=O)N[C@@H](CO)C(=O)N[C@H](C(=O)N[C@@H](CCCCN)C(=O)N[C@@H](CCCCN)C(=O)N[C@@H](CCCNC(=N)N)C(=O)N[C@H](C(=O)N[C@@H](CCCCN)C(=O)N[C@@H](CCCCN)C(=O)N[C@@H](CC(C)C)C(=O)N[C@@H](Cc1ccccc1)C(=O)N[C@@H](CCCCN)C(=O)N[C@@H](CCCCN)C(=O)N1CCC[C@H]1C(=O)N[C@@H](CCCNC(=N)N)C(=O)N[C@H](C(=O)N[C@H](C(=O)N1CCC[C@H]1C(=O)N[C@H](C(=O)N[C@@H](CO)C(=O)N[C@H](C(=O)N1CCC[C@H]1C(=O)N[C@@H](Cc1ccccc1)C(=O)O)[C@@H](C)CC)[C@@H](C)CC)[C@@H](C)CC)C(C)C)C(C)C)C(C)C; test system = MRSA, clinical isolate; conditions = 20 h, 37 °C; MBC = 32 µg/mL
Compound = CC[C@H](C)[C@H](NC(=O)[C@H](CCCCN)NC(=O)[C@H](CCCNC(=N)N)NC(=O)CNC(=O)[C@@H](NC(=O)CN)C(C)C)C(=O)NCC(=O)N[C@@H](Cc1ccccc1)C(=O)N[C@@H](CCCCN)C(=O)N[C@@H](CCCCN)C(=O)N[C@H](C(=O)N[C@@H](CC(C)C)C(=O)N[C@@H](Cc1ccccc1)C(=O)N[C@@H](Cc1ccccc1)C(=O)N[C@@H](Cc1ccccc1)C(=O)N[C@@H](CCCCN)C(=O)N[C@@H](CCCCN)C(=O)NCC(=O)N[C@@H](Cc1ccc(O)cc1)C(=O)N[C@@H](CCC(=O)O)C(=O)N[C@@H](CCCCN)C(=O)N[C@@H](C)C(=O)N[C@@H](CC(N)=O)C(=O)NCC(=O)NCC(=O)N[C@@H](Cc1ccccc1)C(=O)N[C@H](C(=O)N[C@@H](CCCCN)C(=O)N[C@@H](CCCCN)C(=O)N[C@@H](CCCCN)C(=O)NCC(=O)O)C(C)C)C(C)C; test = broth microdilution, agar subculture; test system = ATCC 12600, CaMHB; MBC = > 1020 µM
Compound = CC[C@H](C)[C@@H]1NC(=O)[C@H](CO)NC(=O)C(C)(CCCCN)NC(=O)[C@@H]2CSSC[C@@H](C(=O)N[C@@H](Cc3ccc(O)cc3)C(N)=O)NC(=O)[C@H](CCCCN)NC(=O)[C@@H]3CSSC[C@H](NC(=O)[C@H](CCCNC(=N)N)NC(=O)C(C)(CC(C)C)NC(=O)[C@H](CC(=O)O)NC(=O)[C@H](CC(=O)O)NC(=O)[C@H](CCC(=O)O)NC(=O)[C@H](CC(N)=O)NC(=O)[C@H](Cc4c[nH]c5ccccc45)NC(=O)C(C)(CC)NC(=O)CNC(=O)[C@H](CC(N)=O)NC(=O)[C@@H](NC(=O)CNC(=O)[C@H](Cc4ccccc4)NC(=O)CN)CSSC[C@H](NC(=O)[C@H](Cc4ccc(O)cc4)NC(=O)CNC(=O)CNC(=O)[C@H](CCCCN)NC(=O)[C@H](Cc4ccc(O)cc4)NC(=O)[C@H]4CCCN4C(=O)[C@@H]4CCCN4C1=O)C(=O)N[C@@H](C)C(=O)N[C@@H](CCCCN)C(=O)N1CCC[C@@H]1C(=O)NCC(=O)N[C@@H](Cc1ccccc1)C(=O)N[C@@H](C(C)C)C(=O)N3)C(=O)N[C@@H](Cc1c[nH]cn1)C(=O)NC(C)(C)C(=O)N[C@@H](Cc1c[nH]cn1)C(=O)N2 (stereo partly drawn); test system = 473; conditions = 24 h, 37 °C, 99.9% killing; MBC = 2 µM
Compound = CC(C)C[C@H](NC(=O)[C@H](CCN)NC(=O)[C@H](CCN)NC(=O)[C@@H](Cc1ccccc1)NC(=O)[C@H](CC(C)C)NC(=O)[C@H](CCN)NC(=O)[C@H](CCN)NC(=O)[C@@H](CCN)NC(=O)CCSCCOC(=O)c1ccccc1)C(N)=O; test system = ATCC 6538; conditions = 24 h, 37 °C; MBC = 32 µM
